Measurements pooled from the literature.
Each line is one published result; not all experiments were run side by side. Values joined by “and” are separate records of one study, mostly repeats; a detail may differ. ± gives the spread as reported.

With `Clc1cc(Nc2ncnc3ccc(-c4cccc(N5CCOCC5)c4)cc23)ccc1OCc1ccccc1` the EC50 was 1.3 µM (Trypanosoma cruzi; intracellular amastigote growth, β-galactosidase CPRG; 3T3, Tulahuen, β-galactosidase-expressing; 96 h).
For `Cc1cc(Oc2nc(N3CC[C@@H](c4ccncc4)C3)ncc2F)[nH]n1`, activity read “inactive” (Mycobacterium tuberculosis; non-replicating, ex vivo rabbit caseum; concentration not given, 168 h).
The inhibition of `CN(CCO)CCO.O=C(O)C(Cl)Cl` is reported as -60% (Solanum nigrum; herbicidal activity; 15 mg/mL, 21 days, post-emergence greenhouse).
For `Cc1cc(C(=O)Nc2nc3cccc(C)c3n2[C@H]2CCCCN(C(=O)/C=C/CN(C)C)C2)ccn1`, the survival was 106% and 95% and 79.8% and 95.7% and 85.8% and 95.1% (Trypanosoma brucei brucei; 2T1 CLK1 C215S overexpressing; 0.00013 µM, 72 h).
`CCOC(=O)C1(Cc2ccccc2)Oc2ccccc2N(Cc2ccccc2)C1=O` (stereo not shown) gave an inhibition of 53 ± 1.82% (Setaria viridis; fresh weight, greenhouse postemergence; postemergence, 150 g ai/ha, 21 days).
`CN1CCCCC1C(=O)NC(Cc1ccc(-c2ccccc2)cc1)B(O)O` (stereo not shown) gave an IC50 of 0.034 µM (Plasmodium vivax; ex vivo; Brazilian field isolates; median).
`O=C1NC2(CC2)COc2ncc(F)cc2[C@H]2COCCN2c2ccn3ncc1c3n2` — result for “organ-to-body weight ratio”: 0.208 ± 0.082% (Sprague-Dawley rat, female, uterus; oral, 2.5 mg/kg/day, 4 weeks dosing, end of recovery).
The parasite number of `CCc1nn(C)c2nc(-c3ccc(C(=O)O)cc3)nc(NCc3ccccc3)c12` is reported as 30.1% and 25.8% and 37% and 29% (Cryptosporidium parvum; HCT-8; 9 x EC90, 48 h; baseline: DMSO control).
For `CC(C)[C@H]1NC(=O)[C@H](Cc2ccccc2)NC(=O)[C@@H](C(C)C)NC(=O)[C@@H](C)NC(=O)[C@H](CO)NC(=O)[C@@H](Cc2c(-c3ccc(-c4ccc5ccccc5c4)cc3)[nH]c3ccccc23)NC(=O)[C@@H](CO)NC1=O`, the MIC90 was 40.8 µM (Mycobacterium marinum).
`Nc1nc(Nc2ccc(Cl)cc2)nn1S(=O)(=O)c1ccc2ccccc2c1` has an EC50 of over 8.7 µM (dengue virus; viral replication; Huh-7, New Guinea C).
With `COc1ccccc1-c1n[nH]c2nc(NC3CCN(C(=O)Cc4ccc(F)cc4F)CC3)ncc12` the relative abundance was 1.18 (bead binding, competition bead pull-down, item: LINJ.27.2350; Leishmania donovani axenic amastigote extract; 10 µM; baseline: vehicle).
The inhibition of `CC(C)CC(C(=O)N1CC2(CC1C#N)C(=O)Nc1ccccc12)N(C)C(=O)c1cc2c(F)cc(F)c(F)c2[nH]1` (stereo not shown) is reported as 93.5% (Human coronavirus 229E; cytopathic effect; MRC5; 3.98 µM).
The MIC90 of `C[N+]1=C2C(c3ccc([N+](=O)[O-])cc3)=[N+]([O-])c3ccccc3N2CCC1` is reported as 0.5 µg/mL (Clostridioides difficile; microbial growth).
The mortality of `Cc1cc(Cl)cc(S(C)=NC#N)c1NC(=O)c1cc(Br)nn1-c1ncccc1Cl` (stereo not shown) is reported as 100% (Spodoptera litura; leaf-dip; third instar larvae; 12.5 ppm, 96 h).
`FC(F)(F)c1cccc(CNc2nc(NC3CCN(Cc4ccccc4)CC3)c3nc[nH]c3n2)c1` — result for “mRNA fold change”: 1.76 (Cryptococcus neoformans; RNA-seq, item: VRK1 (CNAG_06161); 48 µg/mL, 3 h; baseline: untreated).
`CCN(CC)C(=O)[C@@H]1C=C2c3cccc4c3c(cn4C(=O)c3cccs3)C[C@H]2N(C)C1`: “head-twitch response count” 12.8 (magnetometer; C57BL/6J mouse, male; intraperitoneal, 0.25 mg/kg, 30 min session).

Some of these lines once more:
For `Cc1cc(Oc2nc(N3CC[C@@H](c4ccncc4)C3)ncc2F)[nH]n1`, activity read “inactive” (Mycobacterium tuberculosis; non-replicating, ex vivo rabbit caseum; concentration not given, 168 h).
